Published values from different studies.
Protocols differ between the studies behind these lines. Values joined by “and” are separate records of one study, mostly repeats; a detail may differ. ± marks the error that the study gave.
Target: Acetylcholinesterase (ache, Electrophorus electricus, UniProt O42275)
UniProt O42275, sequence (whole entry, looked up): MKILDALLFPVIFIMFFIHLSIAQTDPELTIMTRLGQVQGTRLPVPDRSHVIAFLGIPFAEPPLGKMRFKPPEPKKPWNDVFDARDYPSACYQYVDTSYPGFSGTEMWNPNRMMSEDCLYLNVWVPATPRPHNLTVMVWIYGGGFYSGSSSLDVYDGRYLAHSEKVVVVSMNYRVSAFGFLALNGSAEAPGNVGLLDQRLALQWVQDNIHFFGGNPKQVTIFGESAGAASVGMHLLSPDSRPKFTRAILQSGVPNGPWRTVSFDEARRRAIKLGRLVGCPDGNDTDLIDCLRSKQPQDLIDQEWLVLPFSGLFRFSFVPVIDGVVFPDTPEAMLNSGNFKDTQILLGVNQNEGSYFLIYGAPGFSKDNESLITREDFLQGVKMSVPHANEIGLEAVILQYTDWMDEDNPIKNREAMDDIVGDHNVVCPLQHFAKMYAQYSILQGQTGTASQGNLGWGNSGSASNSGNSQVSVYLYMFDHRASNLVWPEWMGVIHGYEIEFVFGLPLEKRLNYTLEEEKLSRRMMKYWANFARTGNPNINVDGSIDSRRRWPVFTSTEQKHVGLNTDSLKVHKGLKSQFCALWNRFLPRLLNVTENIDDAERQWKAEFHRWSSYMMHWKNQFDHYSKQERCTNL

O=C(O)c1cccc(Nc2cc(N3CCN(c4cccc(C(F)(F)F)c4)CC3)c3noc4c3c2C(=O)c2ccccc2-4)c1  inhibition (10 µM): > 20%
Cc1ccc(/C=C/C(=O)c2ccc(N3CCNCC3)cc2)cc1  inhibition (enzyme activity, inhibitor, Ellman; 10 µM): 56.6%
Cc1cccnc1Nc1c2c(nc3ccccc13)CCC(C)C2 (centres unmarked)  inhibition (enzyme activity, inhibitor, Ellman; 50 µM): 89.8%
CC(C)=C[C@H]1C[C@](C)(O)[C@@H]2[C@H]3CC[C@@H]4[C@@]5(C)CC[C@H](O[C@@H]6OC[C@H](O)[C@H](O[C@@H]7O[C@H](CO)[C@@H](O)[C@H](O)[C@H]7O)[C@H]6O[C@@H]6O[C@@H](CO)[C@H](O)[C@H]6O)C(C)(C)[C@@H]5CC[C@@]4(C)[C@@]34CO[C@@]2(C4)O1  inhibition (enzyme activity, inhibitor, Ellman; 100 µM): 87%
O=c1c(NCc2ccccc2)c(NC2CCN(Cc3ccccc3)CC2)c1=O  inhibition (enzyme activity, inhibitor, Ellman; 25 µM): 51.6%
Cc1ccc(Nc2c3c(nc4ccccc24)CCCC3)cc1  inhibition (enzyme activity, inhibitor, Ellman; 100 µM): 72.2%
COc1cccc(CCNc2c(NC3CCN(Cc4ccccc4)CC3)c(=O)c2=O)c1  inhibition (enzyme activity, inhibitor, Ellman; 25 µM): 54.6%
COc1ccc([N+](=O)[O-])cc1NC(=O)CCC(=O)[O][Zn][O]C(=O)CCC(=O)Nc1cc([N+](=O)[O-])ccc1OC.c1ccncc1  inhibition (inhibitor; concentration not given): 72% and 72.7% and 68.7% and 65.3% and 66.1% and 63.2% and 69.3%
Cc1c2[nH]c3cc(Br)ccc3c2cc[n+]1C  inhibition (enzyme activity, inhibitor; 0.1 µg/mL): 92%
O=S(=O)(F)CCc1cn(Cc2cccc(-c3ccccc3)c2)nn1  inhibition (20 µM): 26.5%
CN(C)c1ccc(CNC(=O)CCCn2c(=O)c3cccn3c3ccc(F)cc32)cc1  inhibition (Ellman method; 10 µM): 3.62 ± 2.26%
O=c1c(NCc2ccc(O)cc2)c(NC2CCN(Cc3ccccc3)CC2)c1=O  inhibition (enzyme activity, inhibitor, Ellman; 25 µM): 54.9%
Cc1ccnc(Nc2c3c(nc4ccc(Cl)cc24)CCCC3)c1  inhibition (enzyme activity, inhibitor, Ellman; 50 µM): 39.3%
O=C1Nc2ccccc2/C1=N/NC(=O)c1cc(-c2ccc3c4c(cccc24)CC3)n[nH]1  inhibition (10 µM): > 20%
C[n+]1ccc2c(c1)[nH]c1cc(Br)ccc12  inhibition (enzyme activity, inhibitor; 0.1 µg/mL): 87%
O=C(CCCc1nc2ccccc2c(=O)[nH]1)Nc1ccc(OC(F)F)cc1  inhibition (Ellman method; 10 µM): 2.95 ± 1.71%
Cn1c(=N)c2[nH]c(=O)n(C)c2n(C)c1=O  inhibition (enzyme activity, inhibitor; 0.1 µg/mL): 62%
O=c1c(Nc2ccccc2)c(NC2CCN(Cc3ccccc3)CC2)c1=O  inhibition (enzyme activity, inhibitor, Ellman; 12.5 µM): 48.8%
c1ccc2ncc(Nc3c4c(nc5ccccc35)CCCC4)cc2c1  inhibition (enzyme activity, inhibitor, Ellman; 100 µM): 48.3%
Nc1ccc(Nc2c(NC3CCN(Cc4ccccc4)CC3)c(=O)c2=O)cc1  inhibition (enzyme activity, inhibitor, Ellman; 12.5 µM): 68.9%
COc1ccc(Nc2c3c(nc4ccccc24)CCCC3)cc1  inhibition (enzyme activity, inhibitor, Ellman; 100 µM): 50.3%
COc1ccc(Nc2c(NC3CCN(Cc4ccccc4)CC3)c(=O)c2=O)cc1  inhibition (enzyme activity, inhibitor, Ellman; 25 µM): 64.5%
Clc1ccc2nc3c(c(Nc4ccc5ccccc5n4)c2c1)CCCC3  inhibition (enzyme activity, inhibitor, Ellman; 50 µM): 72.8%
COCc1cc(C)nc(SCC[N+](C)(C)CC(=O)Nc2cccc(C(F)(F)F)c2)c1C#N  inhibition (10 µM): 8.28 ± 2.16%
Nc1ccc(CCNc2c(NC3CCN(Cc4ccccc4)CC3)c(=O)c2=O)cc1  inhibition (enzyme activity, inhibitor, Ellman; 12.5 µM): 60.1%
Cc1ccnc(Nc2c3c(nc4ccccc24)CCCC3)c1  inhibition (enzyme activity, inhibitor, Ellman; 50 µM): 13.1%

Some of these lines once more:
Cn1c(=N)c2[nH]c(=O)n(C)c2n(C)c1=O  inhibition (enzyme activity, inhibitor; 0.1 µg/mL): 62%
CN(C)c1ccc(CNC(=O)CCCn2c(=O)c3cccn3c3ccc(F)cc32)cc1  inhibition (Ellman method; 10 µM): 3.62 ± 2.26%
